Measured values pooled from the literature.
Parts stem from different laboratories: compare values within a part only. Substitutions count along the parent as printed.

Block 1 — target: CCNA2, cyclin fold, Cln2 fusion (human); technique: yeast growth competition, sequencing; sample: yeast; setting: strong parent motif; reference: not given; direction: higher = stronger binding
Parent: E2F2 docking peptide (human); LPAKRKLDLEGIG; partner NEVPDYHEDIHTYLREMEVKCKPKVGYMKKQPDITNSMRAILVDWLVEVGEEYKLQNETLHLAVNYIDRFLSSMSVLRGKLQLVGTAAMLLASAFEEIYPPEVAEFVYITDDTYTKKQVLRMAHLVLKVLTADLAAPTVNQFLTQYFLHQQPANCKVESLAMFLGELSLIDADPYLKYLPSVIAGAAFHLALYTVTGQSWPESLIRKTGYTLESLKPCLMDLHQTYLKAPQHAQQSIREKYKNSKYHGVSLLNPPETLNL
| Substitution | normalised enrichment score |
| --- | --- |
| D8A | 2.29 |
| L7A | -0.015 |
| R5K | 1.68 |
| L9A | 0.676 |
| L1A | 3.58 |
| G13A | 5.03 |
| I12A | 3.52 |

Block 2 — technique: aptamer microarray, sandwich; form: DNA with 2'F-ANA; sample: in vitro; tested at: 200 nM; together with: Cy3 exosite-II aptamer, 400 nM; direction: higher = stronger binding; strand: GGTTGGTGTGGTTGG
Target: Prothrombin, mature alpha-thrombin (F2, Homo sapiens, UniProt P00734)
Setting: whole 15-mer aptamer, many near background
| Modification | mean fluorescence intensity |
| --- | --- |
| 2'F-ANA at 1 2 7 9 11 13 | 107 a.u. |
| 2'F-ANA at 1 2 4 5 6 7 9 13 15 | 49.8 a.u. |
| 2'F-ANA at 1 2 4 6 10 13 14 15 | 51.7 a.u. |
| 2'F-ANA at 1 3 4 6 7 8 11 12 | 370 a.u. |
| 2'F-ANA at 1 2 4 7 8 9 14 | 55.1 a.u. |
| 2'F-ANA at 1 3 4 5 8 9 14 | 45.2 a.u. |
| 2'F-ANA at 1 3 4 5 6 9 12 13 | 81.3 a.u. |
| 2'F-ANA at 2 4 6 9 10 13 14 15 | 58.5 a.u. |
| 2'F-ANA at 1 2 5 7 8 10 11 13 14 | 45.8 a.u. |
| 2'F-ANA at 1 2 3 6 7 9 12 | 297 a.u. |
| 2'F-ANA at 2 3 5 9 10 11 12 | 63 a.u. |
| 2'F-ANA at 1 2 3 4 7 8 9 11 12 13 14 15 | 92.4 a.u. |
| 2'F-ANA at 1 2 6 7 9 10 12 14 15 | 152 a.u. |
| 2'F-ANA at 1 3 4 5 8 9 10 11 12 13 14 15 | 46 a.u. |
| 2'F-ANA at 1 2 3 5 6 8 9 11 12 14 15 | 67.7 a.u. |
| 2'F-ANA at 1 4 5 6 8 9 14 15 | 48.3 a.u. |
| 2'F-ANA at 1 2 4 5 6 9 11 12 | 87.2 a.u. |
| 2'F-ANA at 1 4 5 7 8 10 11 15 | 47.1 a.u. |
| 2'F-ANA at 3 4 5 6 8 11 14 15 | 49.1 a.u. |
| 2'F-ANA at 1 3 7 11 14 | 96.7 a.u. |
| 2'F-ANA at 1 2 4 8 9 10 13 15 | 53.1 a.u. |
| 2'F-ANA at 1 2 3 4 5 11 13 | 47.8 a.u. |
| 2'F-ANA at 4 5 6 7 10 11 12 14 15 | 46.2 a.u. |
| 2'F-ANA at 3 5 7 8 10 15 | 59.9 a.u. |

Block 3 — technique: RNA Bind-n-Seq; form: RNA; sample: in vitro; tested at: 365 nM; reference: no-protein control; direction: higher = stronger binding
Target: RNA binding protein fox-1 homolog 2, RRM domain, GST-SBP tag (RBFOX2, Homo sapiens, UniProt O43251-10, residues 100-194)
Setting: natural RNA segment, single round, ends assumed
Residues (chain): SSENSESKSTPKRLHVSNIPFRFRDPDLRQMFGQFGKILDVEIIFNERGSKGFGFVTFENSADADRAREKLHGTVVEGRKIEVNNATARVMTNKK
| Strand | RBNS enrichment (R) |
| --- | --- |
| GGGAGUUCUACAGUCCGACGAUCAGCCACUUGAACCCUCAAUAAAGGCUGUUGCCUAAGCAUGGCAUACUUCAUCUGUUCUCAUUUGUGCCAUCUGCCGUGAUGUCGUCACUUUUAUGGCGUUAAUUUCCUGCUGGAAUUCUCGGGUGCCAA | 0.315 |
| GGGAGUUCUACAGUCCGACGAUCGGGGCUGGCCCUGCCCUCCCCCACGGCCGUCCCUGACUUCCCAGCUGGCAGCGCCUCCCGCCGCCUCGGGCCGCCUCCUCCAGACUCGAGAGGGCUGAGCCCCUCCUCUCUGGAAUUCUCGGGUGCCAA | 0.217 |
| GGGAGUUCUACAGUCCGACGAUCCAGGCUUCUUGCUAGGUUGUGUGACCUAUAUGUGUGUCUUCUCUGGUCUGGCCCCUCUUCAAGCCAUAUGUCUUAGAGGCCCUCAUAGUGCUCUCCCCUAAGUUGGGUGCUGGAAUUCUCGGGUGCCAA | 0.254 |
| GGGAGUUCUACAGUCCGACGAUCGUAUCCAUAAAGGAUGCUAGCCUGCCUUGUACUAAUGUUUUAUAUAUUAAAAAAAAAAAAUCUAUCAACCAUUUCAUAUAUAUCCCACUACUCAAGGUAUCCAUGGAACAUGGAAUUCUCGGGUGCCAA | 0.461 |
| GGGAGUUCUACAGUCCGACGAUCUGUAUUGUCUCCGGCCACACUGGCAAGAUCAUCAUUAGAAAUGGAAAUGACAUUUGAAAGCCAUUAGACUUCUAGGUGAUGCAUCUAAGAAAGAUUAAUCACACAAUAGAUGGAAUUCUCGGGUGCCAA | 0.272 |
| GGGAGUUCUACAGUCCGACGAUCUUCUUAACUGACUAGAAAGAGCCACCAGCAUUACUCUGUGCCUUUUGGACAUCAGUUUGUGUGUUCUGUAGGAAUUGUGUGCAUUCCAUUCACACAGUAUUUCUUUAGGAUGGAAUUCUCGGGUGCCAA | 0.431 |
| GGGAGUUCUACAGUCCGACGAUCUUAAGACAUAUACAAAGACAAAUGACAGCAAUUCAUGGUUCAAGUAUAAAGCAGUUCAUUCUACCAAGCUGUCACAGGAUCUUAGAGAAUUAUCUCAAGUAAAACAGUGAUGGAAUUCUCGGGUGCCAA | 0.437 |
| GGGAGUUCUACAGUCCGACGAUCCGUGGACGGCCUUGCUUGCUGUAGCGUUGUAGGGGCCCUGCCUGCACUGCGGUUGUCCACGGUCACAUCUGCCCCAGUGCCUUUGUCCUUCCCUUGGGGCUUGCCGGCCAUGGAAUUCUCGGGUGCCAA | 1.8 |

Block 4 — technique: protein binding microarray; form: double-stranded DNA, one strand shown; sample: in vitro; tested at: not given; reference: not given; direction: higher = stronger binding
Target: Histone acetyltransferase KAT6A, both winged helices, GST fusion (KAT6A, Homo sapiens, UniProt Q92794, residues 1-181)
Setting: 8-mer, flanks averaged, mean of 2 arrays, mostly near background
Residues (chain): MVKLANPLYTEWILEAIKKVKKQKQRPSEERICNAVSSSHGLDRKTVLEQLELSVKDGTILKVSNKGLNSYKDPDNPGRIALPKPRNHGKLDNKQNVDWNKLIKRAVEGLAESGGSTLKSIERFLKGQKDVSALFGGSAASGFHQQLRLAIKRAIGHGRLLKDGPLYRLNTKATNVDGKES
| Strand | E-score |
| --- | --- |
| TCCGCTAA | 0.204 |
| TGATTGAA | -0.0127 |
| ACGATCGT | -0.00207 |
| GTTATCAA | -0.167 |
| AAGAAATG | -0.177 |
| ACGCGCGG | 0.388 |
| TGCCCGAA | -0.146 |
| CAGCTACC | -0.198 |
| GGTATTGA | 0.0668 |
| GTCCTATA | 0.0949 |
| AGAGAATC | -0.17 |
| ACACGTAG | -0.066 |
| AATACGGT | 0.13 |
| AAAGTGGC | -0.076 |
| ACGGAGTA | 0.151 |
| GGACCGCC | 0.135 |
| ATAAATAC | -0.11 |
| AAGCGCAG | 0.258 |
| GTCCTGTA | 0.0548 |
